Results from different studies.
Lines come from different studies, so protocols differ. Numbers after ± are the reported error.

N#Cc1cc(NC(=O)[C@H]2c3ccccc3C(=O)N(CC(F)(F)F)[C@@H]2c2cccnc2)ccc1F has an AUC of 17100 ng·h/mL (human, plasma; oral, 900 mg, median).
The AUC extrapolated of Nc1ccn([C@@H]2O[C@H](CO)[C@@H](O)C2(F)F)c(=O)n1 is reported as 0.21% (human patients, plasma; intravenous, 800 mg/m2, median, before paricalcitol).
For C=CC(=O)N1CCC[C@@H](n2c(=O)n(-c3ccc(Oc4ccccc4)cc3)c3c(N)nccc32)C1, “AUC fed/fasted ratio” read 1.12 (human; oral, 300 mg; reference: fed over fasted).
For C=CC(=O)Nc1cc(Nc2nccc(-c3cn(C)c4ccccc34)n2)c(OC)cc1N(C)CCN(C)C, “AUC at steady state” read 11.8 µM·h (human patients; oral, 80 mg, cycle 3 day 1, monotherapy, geometric mean).
Under “AUC dose proportionality ratio”, CC(C)(C(=O)N1CCOc2c(C#N)cncc2C1)C(F)F is recorded as 2.09 (healthy humans, both sexes, plasma; oral, 30 mg single dose, 3-fold dose increase; reference: 30 mg over 10 mg).
N#Cc1ccc(C(c2ccc(C#N)cc2)n2cncn2)cc1: “AUC at steady state per dose” 2.45 ± 0.27 µg·h/mL/mg (human patients, plasma; oral, 5 mg daily).
The AUC of COc1ccc2nc([S@@+]([O-])Cc3ncc(C)c(OC)c3C)[nH]c2c1 is reported as 605 ng·h/mL (human, dried blood spots; oral, 10 mg omeprazole, together with: fluvoxamine).
With O=C(COc1ccc(Cl)cc1)NC12CC(c3nnc([C@H]4C[C@@H](OC(F)(F)F)C4)o3)(C1)C2 the AUC was 87.1 µM·h (healthy human volunteers fasted, plasma; oral, 100 mg single dose, geometric mean).
COc1ccc2nc([S@@+]([O-])Cc3ncc(CO)c(OC)c3C)[nH]c2c1 gave an AUC ratio of 7 fold (human; concentration not given, mean over sessions; reference: (R)-OH-omeprazole over compound).
With Cc1cc(-c2nccc3c2ccn3CC(=O)Nc2ccc(-c3cnccn3)cn2)ccn1 the AUC was 1.63 µM·h (human, plasma; oral, 20 mg once daily, day 1, geometric mean).

A few entries again:
COc1ccc2nc([S@@+]([O-])Cc3ncc(CO)c(OC)c3C)[nH]c2c1 gave an AUC ratio of 7 fold (human; concentration not given, mean over sessions; reference: (R)-OH-omeprazole over compound).
